Results from different studies.
Each line is one published result; not all experiments were run side by side. ± marks the error that the study gave. ≈ marks a conversion by molar mass, not a printed value.
Organism: Mycobacterium tuberculosis

SMILES = CNC(=O)c1cc(C)ccc1OCCc1cc(F)cc(F)c1; read-out = growth; strain = H37Rv-LP; time = 120 h; quantity = IC90; value = 0.36 ± 0.32 µM
SMILES = COc1ccc(-c2cc(C(F)(F)F)c3c(N)c(C(=O)N4CC(C)OC(C)C4)sc3n2)cc1 (centres unmarked); read-out = growth inhibition; strain = H37Rv LepB under-expressing; quantity = IC50; value = > 50 µM
SMILES = Cc1cscc1-c1ccc(OCCc2cccc(F)c2)c(C(N)=O)c1; read-out = growth; strain = H37Rv-LP; time = 120 h; quantity = IC90; value = 1.4 ± 1.1 µM
SMILES = Nc1cccc(F)c1C(=O)NNc1ccc(F)cc1; strain = H37Rv; time = 336 h; quantity = MIC99; value = 1.56 to 2.84 µM (≈ 0.411 to 0.748 µg/mL)
SMILES = O=c1c2cc(Cl)ccc2[nH]c(=S)n1Cc1cc[nH]n1; strain = PptT conditional knockdown; quantity = MIC90; value = 29.2 µM (≈ 8.55 µg/mL)
SMILES = Cc1cccc(NC(=O)c2sc3nc(-c4ccc5c(c4)OCO5)cc(C(F)(F)F)c3c2N)c1C; read-out = growth inhibition; strain = H37Rv LepB under-expressing; quantity = IC50; value = 0.48 ± 0.06 µM
SMILES = O=c1c2cc(Cl)ccc2[nH]c(=S)n1Cc1ncc[nH]1; strain = PptT conditional knockdown; quantity = MIC90; value = 33.4 µM (≈ 9.78 µg/mL)
SMILES = COc1ccc(-c2cc(C(F)(F)F)c3c(N)c(C(=O)NC45CC(C4)C5)sc3n2)cc1; read-out = growth inhibition; strain = H37Rv LepB under-expressing; quantity = IC50; value = > 50 µM
SMILES = O=c1c2cc(C(F)(F)F)ccc2[nH]c(=S)n1Cc1cccnc1; strain = PptT conditional knockdown; quantity = MIC90; value = 26.3 µM (≈ 8.87 µg/mL)
SMILES = Nc1c(C(=O)NCc2ccc(F)cc2)sc2ncccc12; read-out = growth inhibition; strain = H37Rv LepB under-expressing; quantity = IC50; value = > 100 µM
SMILES = Cc1nc(-c2ccc(OCCc3cccc(F)c3)c(C(N)=O)c2)cs1; strain = H37Rv-LP; reference = HepG2 CC50 over Mtb IC90; quantity = selectivity index; value = 11
SMILES = CC(C)C(=O)OCc1cc2[nH]c(=S)n(Cc3cncc(C#N)c3)c(=O)c2cc1Cl; strain = PptT conditional knockdown; quantity = MIC90; value = 0.855 µM (≈ 0.367 µg/mL)
SMILES = CC(=O)c1cc(-c2ccoc2)ccc1OCCc1cccc(F)c1; strain = H37Rv-LP; reference = HepG2 CC50 over Mtb IC90; quantity = selectivity index; value = 181
SMILES = COc1cccc(-c2ccnc(Nc3ccc(N4CCN(C)CC4)c(C(F)(F)F)c3)n2)c1; strain = H37Rv auxotroph; quantity = MIC; value = 25 µM (≈ 11.1 µg/mL)
SMILES = COc1ccc(-c2cc(C(F)(F)F)c3c(N)c(C(=O)N4CCCC4(C)C)sc3n2)cc1; read-out = growth inhibition; strain = H37Rv LepB under-expressing; quantity = IC50; value = > 100 µM
SMILES = CCCCCCC#Cc1cncc(-c2nnc(SCc3ccc([N+](=O)[O-])o3)n2C)c1; read-out = bacterial growth; method = MABA; strain = Erdman wild type; quantity = IC50; value = 0.1 ± 0.0115 µM
SMILES = CC(=O)OCc1cc2[nH]c(=S)n(Cc3cccnc3)c(=O)c2cc1Cl; strain = PptT conditional knockdown; quantity = MIC90; value = 0.25 µM
SMILES = Cc1ccc(OC2CC(c3ccccc3)C2)c(C(N)=O)c1 (centres unmarked); strain = H37Rv-LP; reference = HepG2 CC50 over Mtb IC90; quantity = selectivity index; value = 0.5
SMILES = COc1ccc(-c2cc(C(F)(F)F)c3c(N)c(C(=O)NC(C)c4ccccc4)sc3n2)cn1 (centres unmarked); read-out = growth inhibition; strain = H37Rv LepB under-expressing; quantity = IC50; value = 0.29 ± 0.09 µM
SMILES = O=c1c2ccc(Cl)cc2[nH]c(=S)n1Cc1cccnc1; strain = PptT conditional knockdown; quantity = MIC90; value = > 100 µM
SMILES = COc1ccc(-c2cc(C(F)(F)F)c3c(N)c(C(=O)NC45CC6CC(CC(C6)C4)C5)sc3n2)cc1; read-out = growth inhibition; strain = H37Rv LepB under-expressing; quantity = IC50; value = 0.33 ± 0.09 µM
SMILES = CN(C)CCC(c1cccnc1)n1c(=S)[nH]c2ccc(Cl)cc2c1=O (centres unmarked); strain = PptT conditional knockdown; quantity = MIC90; value = > 100 µM
SMILES = Cc1ccc(OCCc2cc(F)cc(F)c2)c(C(N)=O)c1; read-out = growth; strain = H37Rv-LP; time = 120 h; quantity = IC90; value = 1.3 ± 0.42 µM

Some of these lines once more:
SMILES = COc1ccc(-c2cc(C(F)(F)F)c3c(N)c(C(=O)NC(C)c4ccccc4)sc3n2)cn1 (centres unmarked); read-out = growth inhibition; strain = H37Rv LepB under-expressing; quantity = IC50; value = 0.29 ± 0.09 µM
SMILES = O=c1c2ccc(Cl)cc2[nH]c(=S)n1Cc1cccnc1; strain = PptT conditional knockdown; quantity = MIC90; value = > 100 µM
SMILES = COc1ccc(-c2cc(C(F)(F)F)c3c(N)c(C(=O)NC45CC6CC(CC(C6)C4)C5)sc3n2)cc1; read-out = growth inhibition; strain = H37Rv LepB under-expressing; quantity = IC50; value = 0.33 ± 0.09 µM
